Measured values of several laboratories.
Each line is one published result; not all experiments were run side by side. Numbers after ± are the reported error.
CYP2C8: Cytochrome P450 2C8 (CYP2C8, Homo sapiens, UniProt P10632)

Cc1cc(Nc2ccc(S(F)(F)(F)(F)F)cc2)n2nc(C(C)(F)F)nc2n1 — patients with abdominal pain (Plasmodium falciparum; P. falciparum malaria patients; oral, 400 mg): 0%
COC[C@@H](c1ccc(C(F)(F)F)cc1)N1CCN(C2(C)CCN(C(=O)c3c(C)ncnc3C)CC2)C[C@@H]1C — Cmax breakpoint for response (HIV-1; viral load; HIV-infected patients; week 2): 72.4 ng/mL
CC(=NNC(=O)COc1ccc2c(C)c(Cc3ccccc3)c(=O)oc2c1C)c1ccc(Br)cc1 — viability (HPrEC normal prostate epithelial cells; MTT; 0.4 µg/mL, 2% serum): 86.1%
O=C(O[C@]12C[C@H]3C[C@H](C[C@H](C3)C1)C2)c1ccc(NCc2cc(O)ccc2O)cc1 — EC90 (Toxoplasma gondii; parasite growth; HFF, bradyzoite, glutamine-induced): 5 µM
CNC(=O)c1ccc(-c2cnc3ncc(Cc4ccc5ncccc5c4)n3n2)cc1F — patients with adverse event (measured: Vomiting; cancer patients; oral, dose not given, dose escalation, grade 3-4): 3%
Cc1cc(Nc2ncnc3ccc(NC4=NC(C)(C)CO4)cc23)ccc1Oc1ccn2ncnc2c1 — geometric mean CL/F (CYP2C8; substrate; human, plasma; oral, 300 mg single dose, day 1): 121 L/h
Cn1c(Cn2ccc(C(F)(F)F)c(Oc3cc(Cl)cc(C#N)c3)c2=O)n[nH]c1=O — selectivity index (HIV-1; MTT; MT4, RT A98G/V106I/V179D/Y181C/G333E mutant; reference: CC50 over EC50): > 265
Cc1cc(Nc2ncnc3ccc(NC4=NC(C)(CO)CO4)cc23)ccc1Oc1ccn2ncnc2c1 (stereo not shown) — AUC(0-last) (CYP2C8; human, plasma; oral, 300 mg tucatinib single dose, day 1, arithmetic mean): 450 ng·h/mL
Cn1cc(-c2ccc(-c3cncc(Cl)c3N3CCC4(CCNC4=O)CC3)cc2)cn1 — log2 fold change (COLO 205; gene expression, microarray, measured: NUF2 mRNA; concentration not given, 2 h; reference: untreated cells): -1.59
CC[C@H](C)[C@H](NC(=O)[C@H](Cc1ccc(O)cc1)NC(=O)[C@@H](NC(=O)[C@@H](N)CCCN=C(N)N)C(C)C)C(=O)N[C@@H](Cc1c[nH]cn1)C(=O)N1CCC[C@H]1C(=O)N[C@@H](Cc1ccccc1)C(=O)O — proteolytic conversion (trypsin; LC-MS; 20 µM, 120 min, pH 7.4, 25 °C): 99.9 ± 0.2%
CCOc1cc(CC(=O)N[C@@H](CC(C)C)c2ccccc2N2CCCCC2)ccc1C(=O)O — geometric mean CL/F (CYP2C8; substrate; human, plasma; 0.5 mg, day 1): 45 L/h
CC[C@H](CO)N(CCN(N=O)[C@H](CC)CO)N=O — revertant colonies per plate (Salmonella typhimurium; mutagenicity, Ames plate incorporation; TA100; 1500 µg/plate, without S9, methanol): 160 ± 8
CC[C@H]1[C@@H](O)[C@@H]2[C@H](CC[C@]3(C)[C@@H]([C@H](C)CCNC(=O)NS(=O)(=O)c4ccc(C(C)(C)C)cc4)CC[C@@H]23)[C@@]2(C)CC[C@@H](O)C[C@@H]12 — AUC(0-inf) geometric mean (ATP-dependent translocase ABCB1 (ABCB1, Homo sapiens, UniProt P08183); substrate; human, plasma; dose not given, together with: quinidine): 367 ng·h/mL
Nc1ccn([C@H]2CC[C@@H](CO)O2)c(=O)n1 — selectivity index (HIV-1; MTT; MT4, RT A98G/V106I/V179D/Y181C/G333E mutant; reference: CC50 over EC50): > 265
C#Cc1cccc(Nc2ncnc3cc(OCCOC)c(OCCOC)cc23)c1 — viability (HPrEC normal prostate epithelial cells; MTT; 100 µg/mL, 2% serum): 39.6%
Nc1ccn([C@@H]2CS[C@H](CO)O2)c(=O)n1 — selectivity index (HIV-1; MT4, IIIB wild type; reference: CC50 over EC50): > 127
Oc1ncnc2[nH]ncc12 — EC50 (Toxoplasma gondii; parasite growth; HFF, bradyzoite, alkaline-induced): 30 µM
CC(C)=CC(=O)Nc1ccc(C2=C(c3ccc(O)cc3)C3CC(S(=O)(=O)N(CC(F)(F)F)c4ccc(C)cc4)C2O3)cc1 (stereo not shown) — IC50 (MCF-10A; cell viability; 72 (unit not given)): 23.4 ± 1.89 µM
Cc1cn([C@H]2C[C@H](N=[N+]=[N-])[C@@H](CO)O2)c(=O)[nH]c1=O — selectivity index (HIV-1; MT4, IIIB wild type; reference: CC50 over EC50): > 183
